{"data": "Published values gathered from unrelated publications", "note": "Parts stem from different laboratories: compare values within a part only."}
{"data": "Set 1", "target": "Interferon regulatory factor 7, full length, phosphomimetic (IRF7, Homo sapiens, UniProt Q92985, residues 1-503, S101K/S471D/S472D/S475D/S476D/S477D/S483D/S484D/S487D)", "method": "protein-binding microarray", "molecule type": "double-stranded DNA, one strand shown", "matrix": "in vitro", "tested at": "250 nM", "setting": "60-bp whole probe", "added": "salmon DNA 0.4 mg/ml", "baseline": "random background probes", "reading": "higher = stronger binding", "shared flanks, not repeated": "GCCTAGCAC … GTCTTGATTCGCTTGACGCTGCTG", "chain of UniProt Q92985 (whole entry, unmodified, looked up)": "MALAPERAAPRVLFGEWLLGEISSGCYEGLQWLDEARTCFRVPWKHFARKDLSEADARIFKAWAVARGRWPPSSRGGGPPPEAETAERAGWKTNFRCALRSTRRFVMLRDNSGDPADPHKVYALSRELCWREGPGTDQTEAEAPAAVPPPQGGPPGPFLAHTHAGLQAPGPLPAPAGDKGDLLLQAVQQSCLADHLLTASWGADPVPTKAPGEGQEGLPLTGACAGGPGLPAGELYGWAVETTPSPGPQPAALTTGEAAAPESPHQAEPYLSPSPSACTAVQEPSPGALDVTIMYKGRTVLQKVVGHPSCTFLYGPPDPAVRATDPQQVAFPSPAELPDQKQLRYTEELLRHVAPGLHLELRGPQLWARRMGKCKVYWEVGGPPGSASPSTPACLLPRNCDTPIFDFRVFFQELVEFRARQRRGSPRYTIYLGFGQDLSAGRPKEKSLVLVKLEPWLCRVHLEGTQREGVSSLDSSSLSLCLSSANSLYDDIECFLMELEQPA"}
{"Strand": "CATTTTCTAAATTCCCTAGTGTGCTAG", "log fluorescence": "3.1 z-score"}
{"Strand": "GAATGTTTTTCATTGTTTTTGTGCTAG", "log fluorescence": "0.836 z-score"}
{"Strand": "AAATTCTATTCTCTCAATTTGTGCTAG", "log fluorescence": "1.75 z-score"}
{"Strand": "TTAGGTATCCTTCTCCTTTTGTGCTAG", "log fluorescence": "0.831 z-score"}
{"Strand": "TTAGGTCTCCTACTGGTTTAGTGCTAG", "log fluorescence": "-0.295 z-score"}
{"Strand": "GACGGTATCGGATATCGGGACGTGCTA", "log fluorescence": "0.23 z-score"}
{"Strand": "GACGATATCAGACTGAAGACGTGCTAG", "log fluorescence": "-0.173 z-score"}
{"Strand": "TTAGGTTTCCTTATTCTTTAGTGCTAG", "log fluorescence": "2.16 z-score"}
{"Strand": "CTTACTTTATGTAGGAAGTCGTGCTAG", "log fluorescence": "0.281 z-score"}
{"Strand": "TCAAGTCTGAGATCCAGACTGTGCTAG", "log fluorescence": "-0.418 z-score"}
{"Strand": "TAAGGTTTCCTTATCCTTTAGTGCTAG", "log fluorescence": "3.07 z-score"}
{"Strand": "TTAGGTATGGGACTGGGTTAGTGCTAG", "log fluorescence": "-0.143 z-score"}
{"Strand": "TTAGGTATCGGGTATCGGTTTGTGCTA", "log fluorescence": "3.55 z-score"}
{"Strand": "TCATTTTTCCTAATTGAACTGTGCTAG", "log fluorescence": "2.6 z-score"}
{"Strand": "TCAGTTTTTCATTTTTTACTGTGCTAG", "log fluorescence": "1.08 z-score"}
{"Strand": "TTAGATATCGGGACTGTATTAGTGCTA", "log fluorescence": "0.292 z-score"}
{"Strand": "TCAGATTTACAAACTGTGACTGTGCTA", "log fluorescence": "0.099 z-score"}
{"Strand": "TCACCAATCAGGACTCAGACTGTGCTA", "log fluorescence": "-0.0381 z-score"}
{"Strand": "TATTTTCTGAATGTCTTCCCGTGCTAG", "log fluorescence": "2.95 z-score"}
{"Strand": "GACTGTTTCGGTCTCGGGACGTGCTAG", "log fluorescence": "3.48 z-score"}
{"Strand": "TTAGATACCGGGACTGGATTAGTGCTA", "log fluorescence": "-0.0116 z-score"}
{"Strand": "TTCGATCTCAGTTTCGATTAGTGCTAG", "log fluorescence": "7.47 z-score"}
{"Strand": "TTAGGTATGGGTTTCGGTTAGTGCTAG", "log fluorescence": "6.12 z-score"}
{"data": "Set 2", "target": "RING finger protein unkempt homolog, zinc fingers 1-6, SBP tag (UNK, Homo sapiens, UniProt Q9C0B0, residues 30-357)", "method": "RNA Bind-n-Seq", "molecule type": "RNA", "matrix": "in vitro", "tested at": "100 nM", "setting": "RNA with constant flanks, vertebrate orthologous sites, ends assumed", "baseline": "input RNA pool", "reading": "higher = stronger binding", "chain of UniProt Q9C0B0 (30-357, looked up)": "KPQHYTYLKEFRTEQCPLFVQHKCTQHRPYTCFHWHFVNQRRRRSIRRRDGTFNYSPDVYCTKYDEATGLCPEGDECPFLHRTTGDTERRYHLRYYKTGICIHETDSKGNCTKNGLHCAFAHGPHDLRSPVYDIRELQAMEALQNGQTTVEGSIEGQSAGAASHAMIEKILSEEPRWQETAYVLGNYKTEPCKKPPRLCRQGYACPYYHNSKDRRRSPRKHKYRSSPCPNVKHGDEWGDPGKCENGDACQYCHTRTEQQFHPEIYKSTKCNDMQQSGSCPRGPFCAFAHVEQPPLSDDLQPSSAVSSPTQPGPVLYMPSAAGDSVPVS"}
{"Strand": "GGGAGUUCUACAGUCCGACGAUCCAUUAACACACAAAAUGUCUCCAGGGGGGUAUUAGAUUUGAUUUCUUACAUAUAAAACAAACAAAACCAACCAACGAACCAUUUUUAAAGUAGAAGAGGGUUUUUAAUAGAAAAUGACAUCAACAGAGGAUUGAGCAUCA", "bound/input enrichment [ratio]": 1.54}
{"Strand": "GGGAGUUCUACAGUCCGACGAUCCAUUGUAUUAAUGAAAAUUGCCUUAAUUAUAAACUACACAUAACGAUAACUCGUUUGCACUAACAGAUUCAGUUACUGUCACUAUUAAAUUAUCUGCUUUUCUGAUACCUGAAGCCAAUCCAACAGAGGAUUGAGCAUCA", "bound/input enrichment [ratio]": 0.714}
{"Strand": "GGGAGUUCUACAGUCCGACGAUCGGCAGGCCAGGGAUUGAGGCCGACCUUCCCACAGUUACCGAGUAGGUACGGAAACAACAGGACUGGACAGCCAAGACCUUGAAGGACUCUAACUUAUUUUCAUGGAGACUAUCGACUCCUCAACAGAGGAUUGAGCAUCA", "bound/input enrichment [ratio]": 0.314}
{"Strand": "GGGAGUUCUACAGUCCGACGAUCUAUUUUUUUAUUUUAGGUAUCAUUGCCCAAUGCCCAAGAUCUUUUAUGUUCAGCUGACUGUAGGAAAUAAUGAAUUUUUUGGGGAAGGAAAAACUCGACAAGCUGCUAGACACAAUGCUGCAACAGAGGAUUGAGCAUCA", "bound/input enrichment [ratio]": 2.34}
{"Strand": "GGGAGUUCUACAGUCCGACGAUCAGUAUCCCAGUUGUACCGUGUUGGGUUGGCAUUGUACAGAAAUUAACAGCCAUAUUGGUCUAGAAAUGUUAAACAUAAUUUUUUCCAUUUGUACAGGGGUAACGCACUGUAUUAAAUAUGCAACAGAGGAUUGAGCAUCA", "bound/input enrichment [ratio]": 0.832}
{"Strand": "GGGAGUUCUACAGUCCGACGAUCCAUAGCCUGGCUACUGUGAUACUCAAAAUAUCCACAGUUCUCACUUGUUCCAAAUGAUCCUAAUAAUGGCCUAGAAAUAUCCUCUCUUACCUGUUAUUUAUCAAUUUUUCCCAGUAUUUUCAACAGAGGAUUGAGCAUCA", "bound/input enrichment [ratio]": 0.778}
{"Strand": "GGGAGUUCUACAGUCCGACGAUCUUGGGACCAGCUCUCCAAAUAGGAAUAGUAGUAAAAAAAAUAAGCAAAAUGAUAUUUGUGUAGAAAAAACAGAAGUUAAAUCAUGUAAAGUAAAUGCUGCUAGCGUUCCAGGUUCUAAAGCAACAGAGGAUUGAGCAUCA", "bound/input enrichment [ratio]": 0.681}
{"Strand": "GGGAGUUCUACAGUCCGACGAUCCUGAAGCUUUGUGUUUGGCUGCACCUGCAUAAGCUGCUACAAAUAGAAUAAAGAAUUUCAUAGCCUGUAUCUAUCAUUUAGAUGCAUGGAAAAAAUGGGCUUUGCACACAAUGGGUUUGGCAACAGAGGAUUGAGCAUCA", "bound/input enrichment [ratio]": 2.79}
{"data": "Set 3", "target": "RNA binding protein fox-1 homolog 2, RRM domain, GST-SBP tag (RBFOX2, Homo sapiens, UniProt O43251-10, residues 100-194)", "method": "RNA Bind-n-Seq", "molecule type": "RNA", "matrix": "in vitro", "tested at": "365 nM", "setting": "natural RNA segment, single round, ends assumed", "baseline": "no-protein control", "reading": "higher = stronger binding", "Construct (chain)": "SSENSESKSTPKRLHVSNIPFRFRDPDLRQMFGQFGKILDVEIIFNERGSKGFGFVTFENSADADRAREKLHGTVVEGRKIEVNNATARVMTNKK"}
{"Strand": "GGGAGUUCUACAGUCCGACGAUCCAAGUGUCUCCCUCAGCUUGUGUCCCUUUUUUCCUCCCCUUUCUGUCCUGGGCCUCUGUGUAGAGCAUGGAGGAAGAAGACGACAAGUUGAUAGGUGUGGUGGACAGAGGUGGAAUUCUCGGGUGCCAA", "RBNS enrichment (R)": 0.353}
{"Strand": "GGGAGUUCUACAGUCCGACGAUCGUGACAAAGUUUGCACUUACAAAAUCAUGUAAAUAUGUCACAUUUUGUUUUAACAUUUUUUUCAAAGUAUUUAGGUAAUGAUGUAUUAACUUCACAUUCAGAUUUAUGUUUGGAAUUCUCGGGUGCCAA", "RBNS enrichment (R)": 0.683}
{"Strand": "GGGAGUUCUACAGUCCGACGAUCGGGGUGGGCUCUCCCUUAGGCUUGGGCAAGGCAGCCACCUGCCCUUGCUCUCCCUUAGUGUUCCCUGGCCUCCCUGCCAUCAGGUUGCUGGGAGUGGAGAUGGAGGGAUUUGGAAUUCUCGGGUGCCAA", "RBNS enrichment (R)": 0.291}
{"Strand": "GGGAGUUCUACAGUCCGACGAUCUGACAAGGGUAUUAUCAUGGAGUUCUGCCUAUUCCUACUGGUGUCCACCAGUCACACAUUUGGAAUGUAGAUUCCAAAGACAGAAAAGAUAAAGGGUUUCCCAAGGGUAGUGGAAUUCUCGGGUGCCAA", "RBNS enrichment (R)": 0.406}
{"Strand": "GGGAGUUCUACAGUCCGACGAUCUUUUACUUAAUUCAUAGCCUUCCUUGGUUUCAUAUUUGUUUGCAUUUAAUUCAUGUUUGAGUCUCUUAACUGAUGGAUGCCCACUUGCCUUAAAGCAGCAUACUUAUUUUUGGAAUUCUCGGGUGCCAA", "RBNS enrichment (R)": 0.655}
{"Strand": "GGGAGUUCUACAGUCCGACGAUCUUCUCACAAUGAUGCAGAUUAGGAAAAUUGAAGUAUUCAGGAAACAGGGGUGGUUGCUAAGGUUCCGUACCUGCUCUUUAUAAAUUUAUAGUGGCUUUAUCCUGACAUAGUGGAAUUCUCGGGUGCCAA", "RBNS enrichment (R)": 0.563}
{"Strand": "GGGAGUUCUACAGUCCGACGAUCUUAAAAACAAGGACAAUAAAUAUUCAAAAUGCAUCCCUAAUUACUACAUUUGACCACGAUCUGUGCUUAUCUGUGCACUGACUGUGAUCUGUGAGGUUGGCUCUGUUGUGUGGAAUUCUCGGGUGCCAA", "RBNS enrichment (R)": 0.354}
{"Strand": "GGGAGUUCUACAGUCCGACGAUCGAAUCAAAGGAAUUCUAGAAAGUAUCUGGGCAGAACGCUAGGAGAGAUCCAAAUUUCCAUUGUCUUGCAAGCAAAGCACGUAUUAAAUAUGAUCUGCAGCCAUUAAAAAGUGGAAUUCUCGGGUGCCAA", "RBNS enrichment (R)": 2.76}
{"Strand": "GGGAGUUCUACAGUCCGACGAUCGCAUUUCCUAUAGACAGGUUAAAUUUUGGGUUGAAAGUUUUGUGGGUGGGUUGGUGUCUCUUAUCGCUCCACUGGGGUUCCUCUCUGGAUACAGGAGGUGGCUUCUUCAGUGGAAUUCUCGGGUGCCAA", "RBNS enrichment (R)": 0.564}
{"data": "Set 4", "target": "Ras GTPase-activating protein-binding protein 1, full length (G3BP1, Homo sapiens, UniProt Q13283)", "method": "RNA Bind-n-Seq", "molecule type": "RNA", "matrix": "in vitro", "tested at": "200 nM", "setting": "whole 134-nt RNA, ends assumed", "added": "150 mM LiCl", "baseline": "input library", "reading": "higher = stronger binding", "library": "7-deaza-guanosine replaces G", "chain of UniProt Q13283 (whole entry, looked up)": "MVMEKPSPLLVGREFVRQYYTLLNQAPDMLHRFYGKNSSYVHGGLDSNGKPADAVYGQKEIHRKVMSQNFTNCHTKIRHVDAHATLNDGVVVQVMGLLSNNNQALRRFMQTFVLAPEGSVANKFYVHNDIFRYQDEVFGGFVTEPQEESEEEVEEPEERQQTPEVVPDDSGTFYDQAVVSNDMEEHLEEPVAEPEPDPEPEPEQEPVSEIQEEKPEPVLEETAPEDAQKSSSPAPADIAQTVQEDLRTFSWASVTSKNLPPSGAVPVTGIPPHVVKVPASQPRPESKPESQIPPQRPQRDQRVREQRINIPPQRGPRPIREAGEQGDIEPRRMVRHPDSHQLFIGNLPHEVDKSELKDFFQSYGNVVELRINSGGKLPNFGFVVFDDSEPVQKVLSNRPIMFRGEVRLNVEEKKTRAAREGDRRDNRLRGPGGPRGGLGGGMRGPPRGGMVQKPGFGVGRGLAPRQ"}
{"Strand": "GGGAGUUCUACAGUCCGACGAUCAGUCCUGUGCUACACAUCGUAUGUACCGAAUCGGGGUUUUUGGGGUGGGGAAAGGGGAAAGUAUUAUGUUACGCCGUUCGGAUCUGCACUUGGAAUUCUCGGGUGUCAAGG", "log2 enrichment": 0.55}
{"Strand": "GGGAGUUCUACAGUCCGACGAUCUCAAGUCCUGUGCUACACAUCGUAUGUACCGAAUCGGGGUUGGUUGGGGUUGGGAAAGUAUUAUGUUACGCCGUUCGGAUCUGCACUUCCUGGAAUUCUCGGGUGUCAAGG", "log2 enrichment": -0.588}
{"Strand": "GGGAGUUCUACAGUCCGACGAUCUGGAUGGACACCAUUAUCGUCGUGUGGCACGGGUUGACCUAAGGAAGAAGACAGAGACUUUCUCCACAAGAAGGGUUAAGUCUGGGCUGUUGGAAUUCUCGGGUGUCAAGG", "log2 enrichment": -0.155}
{"Strand": "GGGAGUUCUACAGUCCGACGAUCAGUCCUGUGCUACACAUCGUAUGUACCGAAUCGGGGCCCCGGGCCCCGGGGCCCCGGGAAAGUAUUAUGUUACGCCGUUCGGAUCUGCACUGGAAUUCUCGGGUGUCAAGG", "log2 enrichment": -0.0682}
{"Strand": "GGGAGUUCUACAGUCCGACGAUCCUGUGCUACACAUCGUAUGUACCGAAUCGGGGUUUUUUUGGGGUUUUUGGGGAAAAAGGGGAAAGUAUUAUGUUACGCCGUUCGGAUCUGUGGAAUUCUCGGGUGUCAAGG", "log2 enrichment": 0.611}
{"Strand": "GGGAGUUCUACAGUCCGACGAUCGCACGAAGUAAAAACAAAUGGAAAUGCUUCGGAUAGUGGCAGGGGUGGGGGUUGCUAAGGAAAGGGUGGGAUGGGAGUGGGUAAAGAGUUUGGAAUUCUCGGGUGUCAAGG", "log2 enrichment": 0.0217}
{"note": "Excerpt of the above (set 4):"}
{"Strand": "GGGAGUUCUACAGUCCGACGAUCGCACGAAGUAAAAACAAAUGGAAAUGCUUCGGAUAGUGGCAGGGGUGGGGGUUGCUAAGGAAAGGGUGGGAUGGGAGUGGGUAAAGAGUUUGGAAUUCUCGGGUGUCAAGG", "log2 enrichment": 0.0217}
{"Strand": "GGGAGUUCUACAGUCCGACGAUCCUGUGCUACACAUCGUAUGUACCGAAUCGGGGUUUUUUUGGGGUUUUUGGGGAAAAAGGGGAAAGUAUUAUGUUACGCCGUUCGGAUCUGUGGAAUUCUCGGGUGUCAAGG", "log2 enrichment": 0.611}
{"Strand": "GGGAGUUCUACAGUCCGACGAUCAGUCCUGUGCUACACAUCGUAUGUACCGAAUCGGGGUUUUUGGGGUGGGGAAAGGGGAAAGUAUUAUGUUACGCCGUUCGGAUCUGCACUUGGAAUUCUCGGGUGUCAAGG", "log2 enrichment": 0.55}
